Experimental data gathered from unrelated publications.
Parts stem from different laboratories: compare values within a part only. Substitutions count along the parent as printed.

Sample 1 — method: protein-binding microarray; molecule type: double-stranded DNA, one strand shown; medium: in vitro; tested at: 0.8 µM; setting: whole 60-bp probe, no competitor; reading: higher = stronger binding; endpoint: fluorescence intensity; constant ends, left off below: … GTCTTGATTCGCTTGACGCTGCTG
Target: Centromere-binding protein 1, full length, N-terminal tag (CBF1, Saccharomyces cerevisiae, UniProt P17106, residues 1-351)
Sequence of UniProt P17106 (whole entry, looked up): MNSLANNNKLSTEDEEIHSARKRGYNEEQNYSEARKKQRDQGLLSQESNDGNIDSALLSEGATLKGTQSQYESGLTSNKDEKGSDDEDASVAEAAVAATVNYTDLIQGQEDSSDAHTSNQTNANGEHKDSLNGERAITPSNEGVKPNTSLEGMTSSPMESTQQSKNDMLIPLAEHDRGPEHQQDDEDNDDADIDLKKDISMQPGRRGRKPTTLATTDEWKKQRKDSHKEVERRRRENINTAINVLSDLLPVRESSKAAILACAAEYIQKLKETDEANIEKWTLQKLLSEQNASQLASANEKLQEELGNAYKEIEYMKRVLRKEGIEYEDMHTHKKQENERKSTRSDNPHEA
GAATATATAAAGTATGTCATGAGTAAACTAGTTTAG: 539 a.u.
GAATTTCCCTTCCCTCGCGTGCCATTCGGCGATTAG: 504 a.u.
GAATTTGATAATTCACGTGTAATTAAGAACATCTAG: 3770 a.u.
CTAATAAGGCGTTAGATGGTGACATAAGGTATGTTC: 502 a.u.
GAAAAATCTTGCTGTGACCCAAACAAGAAAGAGTAG: 591 a.u.
CTATGGGTAGTTTATAACGTGTGTGCTCTCTCTTTC: 521 a.u.
CTAATCCAGAATTCACTGATGATGAGCTTATGGTTC: 505 a.u.
GAATTCGTGAAACGTGACATGTTGGGTACCCGCTAG: 6020 a.u.
CTAATATTTCAACATCATGTTTTGCTTAGTAGATTC: 551 a.u.
GAACGAGATAATGAGCATGATGTATAAACAAACTAG: 602 a.u.
CTACCAAAATTTTCACACCTGAGATATATTGTTTTC: 504 a.u.
CTAAGCGTAATTGATTTCGTGATGGTTCGATCCTTC: 538 a.u.
GAACAGAATTAACCCCACGCGGGCAGTCTGATATAG: 638 a.u.
CTACTGCTAGCAATGAACGTGCTATCTTTTTATTTC: 696 a.u.
GAAAAAACAATGCCGCACCTGAGGGAGAACAAATAG: 531 a.u.
GAAAATTATCCAAGAAACGTGCGGCAGGATAATTAG: 595 a.u.
CCTAACTACTATAGGCACGACCCATAGCTTCGTACA: 522 a.u.

Sample 2 — method: protein binding microarray; molecule type: double-stranded DNA, one strand shown; medium: in vitro; tested at: not given; reference: not given; reading: higher = stronger binding; endpoint: E-score
Target: Histone acetyltransferase KAT6A, winged helix 2, GST fusion (KAT6A, Homo sapiens, UniProt Q92794, residues 85-181)
Setting: 8-mer, flanks averaged, mean of 2 arrays, mostly near background
Construct (chain): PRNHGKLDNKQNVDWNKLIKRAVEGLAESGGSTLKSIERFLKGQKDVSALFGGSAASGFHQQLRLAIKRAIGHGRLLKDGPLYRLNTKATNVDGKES
AGGTAACT: -0.0296
ACAACTTG: -0.0852
GAAAGCTC: -0.101
CCTTGGCC: -0.0789
CATTACGA: -0.141
CGACGGCG: 0.134
GCCTTTTA: -0.156
GCAAAGGC: -0.0257
ACGCCAAC: 0.0402
ATTCCTAA: -0.0367
ATGAGCCC: -0.0374
TCGTATAA: 0.0561
CAACGTAC: -0.193
CAAGATGG: -0.145
CCCAATAC: 0.0754
ATTGGGTA: -0.131
AGCGTATC: -0.0467
GGACCCAA: -0.0617
TATGACAA: 0.0826
CTAACAAG: -0.0737
GGAGAGGA: -0.0643
CGATTAGA: -0.0393
GACCTGGA: -0.0469
GAACTATA: -0.0327
GACCAATC: -0.0908

Sample 3 — target: CCNA1, cyclin fold, Cln2 fusion (human); method: yeast growth competition, sequencing; medium: yeast; setting: weak parent motif; reference: not given; reading: higher = stronger binding; endpoint: normalised enrichment score
Starting sequence: CDAN1 docking peptide (human); RGARSQLFPPTEA; partner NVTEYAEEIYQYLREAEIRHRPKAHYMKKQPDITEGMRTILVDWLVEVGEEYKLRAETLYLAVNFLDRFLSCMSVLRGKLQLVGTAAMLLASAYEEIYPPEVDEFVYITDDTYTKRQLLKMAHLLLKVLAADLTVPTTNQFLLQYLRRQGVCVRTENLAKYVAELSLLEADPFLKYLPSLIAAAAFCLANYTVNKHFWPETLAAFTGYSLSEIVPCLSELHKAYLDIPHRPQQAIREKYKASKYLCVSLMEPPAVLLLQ
E12A: 0.119
L7A: -0.0563
P9A: 0.548
F8A: 0.467
R1A: 0.299

Sample 4 — target: CEP164, C-terminal peptide (human); method: DHFR complementation, deep sequencing; medium: yeast; reference: wild type; reading: higher = weaker binding; endpoint: binding free energy change
Setting: single substitutions, model-inferred values
Starting sequence: PDZK1, PDZ domain 2 (human); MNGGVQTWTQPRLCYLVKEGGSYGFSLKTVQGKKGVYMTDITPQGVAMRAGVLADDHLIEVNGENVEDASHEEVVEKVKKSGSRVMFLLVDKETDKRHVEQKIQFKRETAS; partner HNRVKVYRF
S70L: 0.0136 kcal/mol
G21Y: 0.255 kcal/mol
H71L: -0.478 kcal/mol
V90M: -0.0846 kcal/mol
E93Y: -0.16 kcal/mol
V75G: 1.17 kcal/mol
T94D: 0.132 kcal/mol
R12S: 0.23 kcal/mol
V66K: 1.38 kcal/mol
T109K: -0.288 kcal/mol
P43T: 0.336 kcal/mol
F25V: 1.3 kcal/mol
A110S: -0.11 kcal/mol
S111H: 0.022 kcal/mol
K18I: 0.829 kcal/mol
N2V: -0.0866 kcal/mol
H57C: -0.395 kcal/mol
V75P: 0.697 kcal/mol
L16A: 1.51 kcal/mol
V90K: -0.118 kcal/mol
E64V: 0.0109 kcal/mol
M86F: -0.0187 kcal/mol
L16N: 1.48 kcal/mol

Sample 5 — method: DHFR PCA, deep sequencing; medium: yeast; with: (+)-ABA 200 µM; reference: wild-type fitted maximum; reading: higher = stronger binding; endpoint: relative binding score
Target: ABI1, truncated, D143A, DHFR fusion (Arabidopsis thaliana)
Setting: methotrexate growth selection, single substitutions
Starting sequence: PYL1, truncated, DHFR fusion (Arabidopsis thaliana); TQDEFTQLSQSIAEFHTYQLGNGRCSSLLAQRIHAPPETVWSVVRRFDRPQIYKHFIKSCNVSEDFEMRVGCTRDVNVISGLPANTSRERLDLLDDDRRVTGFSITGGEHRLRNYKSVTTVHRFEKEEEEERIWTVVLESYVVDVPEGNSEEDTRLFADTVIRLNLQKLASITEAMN
R45H: 21.8%
Y141N: -10.7%
F124C: 109%
L82W: 56.7%
F47C: -1.99%
C72A: 107%
T106D: 74.4%
R123L: 99%
D97W: 87.4%
S80V: 17.8%
V40Y: -8.68%
T101Y: 93.3%
G102A: 96.2%
L156C: 99.7%
I79V: 108%
E109L: 83.9%
S42L: 84.5%

Sample 6 — method: RNA Bind-n-Seq; molecule type: RNA; medium: in vitro; tested at: 200 nM; setting: whole 134-nt RNA, ends assumed; with: 150 mM KCl; reference: input library; reading: higher = stronger binding; endpoint: log2 enrichment
Target: Fragile X messenger ribonucleoprotein 1, C-terminal low-complexity region (Fmr1, Mus musculus, UniProt P35922)
Constant ends, left off below: GGGAGUUCUACAGUCCGACGAUC … UGGAAUUCUCGGGUGUCAAGG
GUCCUGUGCUACACAUCGUAUGUACCGAAUCAAAUUUUUAAACCCAAACCCCCCCAAAAAAGUAUUAUGUUACGCCGUUCGGAUCUGCAC: -0.196
CAAGUCCUGUGCUACACAUCGUAUGUACCGAAUCGGGAAAAAAAGGGUGGGAGGGAAAGUAUUAUGUUACGCCGUUCGGAUCUGCACUUC: 0.955
ACCAUGCAAAUGGGCAUCUUUGGGAAGUGGGGCAAGGGGGGGAUAGGGAGGGGGGUAACACUUUGGGAACAGGUGGUCCCAGGUCGUUUC: 0.598
UGGGAGGUGGAUUUGGUUUAUUUUUUUAGCUCAUUUCCAGGGGUGGGAAUUUUUUUUUAAUAUGUGUCAUGAAUAAAGUUGUUUUUGAAA: 0.17
CUCAAGUCCUGUGCUACACAUCGUAUGUACCGAAUCGGGCCGGCCGGGCCGGGAAAGUAUUAUGUUACGCCGUUCGGAUCUGCACUUCCA: -0.123
AGGCUAUGGAGGCUAUGAUGAUUACAAUGGCUAUAAUGAUGGCUAUGGAUUUGGGUCAGAUAGAUUUGGAAGAGGUAAGGUAAGAAUUGA: 0.301
CACAGACAACAAACACCCACACAGACACAGAGGGAAGGGGUUGGGAUGGGGACAGGGUGCACAGCAGGGCGGGGUAGGACCCCAGCCCCU: 1.59
UCAAGUCCUGUGCUACACAUCGUAUGUACCGAAUCGGUUUGGGGUUUGGUUUGGGAAAGUAUUAUGUUACGCCGUUCGGAUCUGCACUUC: -0.298
UCCCUAUUCCAGUCAUACACGUGGACCUAACUGCACCAGUAGCUUUUCUGAGAAUACUUGCUGAAAAGGAAGUUUUCUGGAAUGGGUAAG: -0.206
UCCUGUGCUACACAUCGUAUGUACCGAAUCGGGUUUUUGGGAAAAAAAGGGAAAAAGGGAAAGUAUUAUGUUACGCCGUUCGGAUCUGCA: -0.336
AAGUCCUGUGCUACACAUCGUAUGUACCGAAUCGGGUGGGUUUUUUUGGGUUUGGGAAAGUAUUAUGUUACGCCGUUCGGAUCUGCACUU: 0.687
UGGCCCUGGUGGCAUGCGGGGAGGAAGAGGUGGCCUCAUGGAUCGUGGUGGUCCCGGUGGAAUGUUCAGAGGUAGCCGUGGUGGAGACAG: 0.0397
AAGUCCUGUGCUACACAUCGUAUGUACCGAAUCAAACCCCCAAACCCAAACCCAAAAAAGUAUUAUGUUACGCCGUUCGGAUCUGCACUU: -0.399
AGUUCUAUCUCUGGGGUGACUGCCGCAUAUAACCGAGAACAGCUGUGGCUGGCCAAUGAAGGCCUGAUCACCAGGCUGCAGGCUCGCUGC: -0.551

Sample 7 — method: universal PBM; molecule type: double-stranded DNA, one strand shown; medium: in vitro; tested at: 600 nM; reading: higher = stronger binding; endpoint: E-score
Target: Sal-like protein 4, full length isoform A (SALL4, Homo sapiens, UniProt Q9UJQ4, residues 1-1053)
Sequence of UniProt Q9UJQ4 (whole entry, looked up): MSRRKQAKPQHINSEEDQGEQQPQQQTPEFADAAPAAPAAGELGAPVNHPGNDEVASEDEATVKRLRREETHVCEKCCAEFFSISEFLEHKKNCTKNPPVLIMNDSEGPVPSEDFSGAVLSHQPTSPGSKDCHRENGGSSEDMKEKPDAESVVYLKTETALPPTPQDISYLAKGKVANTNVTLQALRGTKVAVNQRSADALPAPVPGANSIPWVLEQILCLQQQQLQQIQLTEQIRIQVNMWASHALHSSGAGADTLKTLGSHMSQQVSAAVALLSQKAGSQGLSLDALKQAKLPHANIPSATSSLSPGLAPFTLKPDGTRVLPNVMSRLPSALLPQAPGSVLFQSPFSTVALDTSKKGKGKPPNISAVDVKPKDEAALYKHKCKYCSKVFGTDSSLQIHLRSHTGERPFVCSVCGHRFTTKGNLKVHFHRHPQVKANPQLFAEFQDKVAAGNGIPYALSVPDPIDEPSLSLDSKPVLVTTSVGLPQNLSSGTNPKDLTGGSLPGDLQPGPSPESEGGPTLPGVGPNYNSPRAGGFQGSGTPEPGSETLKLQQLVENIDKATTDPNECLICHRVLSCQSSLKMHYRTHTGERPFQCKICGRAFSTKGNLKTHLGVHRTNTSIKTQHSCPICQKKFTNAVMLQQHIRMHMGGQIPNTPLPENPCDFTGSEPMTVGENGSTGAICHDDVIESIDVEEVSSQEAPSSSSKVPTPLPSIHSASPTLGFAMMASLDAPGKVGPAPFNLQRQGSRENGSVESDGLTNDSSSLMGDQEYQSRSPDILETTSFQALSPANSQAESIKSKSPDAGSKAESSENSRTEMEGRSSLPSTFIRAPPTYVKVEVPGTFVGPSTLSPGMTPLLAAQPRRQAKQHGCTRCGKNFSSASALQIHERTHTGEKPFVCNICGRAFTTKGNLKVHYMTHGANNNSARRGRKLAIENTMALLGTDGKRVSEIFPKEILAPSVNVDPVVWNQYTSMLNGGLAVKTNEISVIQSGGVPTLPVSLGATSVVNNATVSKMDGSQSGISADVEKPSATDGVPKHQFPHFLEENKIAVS
Setting: 8-mer, flanks averaged, mean of replicates
AGCTTGAG: -0.14
CGGTCGAC: -0.259
ACTGGGGA: -0.358
GAGAGCTA: -0.0271
AATAGGAG: 0.128
GCTGGGGA: -0.274
GGAGCCAC: -0.423
CGTACAAC: -0.00421
CGCCCTAG: -0.298
GCTGAGAC: -0.109
CCGAACGA: -0.103
TTACGGAA: 0.132
AAGTACCT: -0.00558
GTAAAAAA: 0.284
ATAACGGG: 0.131
AGGGATAA: 0.0973
CGGCTTGA: -0.191
ATGAGCTC: -0.0947
CATGTGAC: 0.139
CCTTAATA: 0.256
CAGTCTAC: -0.0372
CGAAATGC: -0.0106
AGCGCAGC: -0.277
GGGCGGAA: -0.197
AGACACCC: -0.185

Mixed results
PhoQ, residues 284 288 289 292 302 303 SSTMSV — fold induction (PhoP, residues 12 14 15 18 19 DLLYY (Escherichia coli, UniProt P23836); Sort-seq, measured: YFP reporter; E. coli; PhoQ-PhoP variant library, with: 10 µM Mg2+; reference: high Mg2+ state, higher = stronger signaling): 3.42

Some of these lines once more (sample 5):
F47C: -1.99%
C72A: 107%
T106D: 74.4%
R123L: 99%
D97W: 87.4%
S80V: 17.8%
V40Y: -8.68%
T101Y: 93.3%
G102A: 96.2%
L156C: 99.7%
I79V: 108%
E109L: 83.9%
S42L: 84.5%
